# Experimental data collected from several papers.
# Lines come from different studies, so protocols differ. Several values in a cell are separate wells, animals, samples, runs or records. ± marks the error that the study gave.
# Organism: Plasmodium falciparum
SMILES,observed,method,strain,time,notes,IC50
COc1cc2nc(N3CCCN(C)CC3)nc(NC3CCN(C)CC3)c2cc1OC,parasite growth,SYBR Green I,3D7,3 days,,> 300 nM
CN(C)CCNC(=O)/C=C/[C@H](Cc1ccccc1)Nc1ccnc2cc(Cl)ccc12,,,3D7,48 h,,30.1 ± 1.06 nM
CN(C)CCCOc1ccc2cc1Oc1ccc(cc1)CC1c3c(cc(OCCCN(C)C)c4c3Oc3cc5c(cc3O4)CCN(C)C5C2)CCN1C (stereo not drawn),parasite growth,SYBR Green,NF54,72 h,blood stage,123 nM
Cc1ccc2c(c1)[n+]([O-])c(C#N)c(-c1ccco1)[n+]2[O-],parasite growth,[3H]hypoxanthine incorporation,3D7 chloroquine-sensitive,,,930 ± 410 nM
Clc1ccc(C2=CC(c3ccc[nH]3)=NC2=CNC2CCCCCCC2)cc1,parasite growth,SYBR Green I fluorescence,"D6, chloroquine-sensitive",,,832 nM
N[C@@H](CCC(=O)N[C@@H](CCC(=O)N(O)c1ccc(Br)cc1)C(=O)NCC(=O)OC1CCCC1)C(=O)OC1CCCC1,blood-stage growth,Giemsa-stained smears,3D7,48 h,synchronous culture,30000 nM
N#Cc1c(-c2ccco2)[n+]([O-])c2ccccc2[n+]1[O-],parasite growth,[3H]hypoxanthine incorporation,3D7 chloroquine-sensitive,,,750 ± 310 nM
COc1ccc2c(c1)C1CC(C)(N2)c2c(C)nc3ccc(OC)cc3c21 (stereo not drawn),schizont development,,INDO,12 h,early to late schizont,54300 nM
COCn1ccc(NCCNCCCOc2ccc3c(NCCCc4ccccc4)ncnc3c2)nc1=O,parasite growth,,NF54,,blood stage,2380 nM
Cc1[nH]c(C=NC23CC4CC(CC(C4)C2)C3)c(C)c1-c1ccc[nH]1,parasite growth,SYBR Green I fluorescence,"D6, chloroquine-sensitive",,,1420 nM
Cc1ccc2c(c1)[n+]([O-])c(C#N)c(-c1cccs1)[n+]2[O-],parasite growth,[3H]hypoxanthine incorporation,3D7 chloroquine-sensitive,,,2860 ± 460 nM
O=C(C1CCN(c2nnnn2-c2ccccc2)CC1)N1CCCc2ccccc21,parasite growth,,DD2,,blood stage,895 nM
COC(=O)[C@@H]1Cc2c([nH]c3ccccc23)[C@H](c2cccs2)N1,parasite growth,,3D7,48 h,blood stage,6.84 µg/mL
CC1=CC(c2ccc[nH]2)=NC1=CNC1CCCCCCC1,parasite growth,SYBR Green I fluorescence,"D6, chloroquine-sensitive",,,> 250 nM
CCCCCC1CC2CCCC3CC(C)N=C(N1)N32 (stereo not drawn),parasite growth,plasmodial LDH,W2 chloroquine-resistant,,,1070 nM
CC1=N[C@H](C)Cc2c(-c3ccc(C)cc3)ccc(O)c21,parasite growth,SYBR Green,NF54,96 h,blood stage,990 nM
N#Cc1c(-c2cccs2)[n+]([O-])c2ccc(F)cc2[n+]1[O-],parasite growth,[3H]hypoxanthine incorporation,3D7 chloroquine-sensitive,,,> 10000 nM
N#Cc1ccc2c(c1)CCCN2C(=O)C1CCN(c2nnnn2-c2ccccc2)CC1,parasite growth,SYBR Green,3D7,72 h,blood stage,> 10000 nM
C=C1[C@@H]([C@@]2(C)C=CC(=O)C(C)(C)[C@@H]2CC(=O)OC)[C@@H](OC(C)=O)[C@H](OC(C)=O)[C@@]2(C)[C@H](c3ccoc3)C[C@H]3O[C@]132,,[3H]hypoxanthine incorporation,"D6, chloroquine-sensitive",,,17100 ± 200 nM
O=c1c(NCCCN(Cc2ccc(F)cc2)c2ccccn2)c(NCc2cccnc2)c1=O,parasite growth,flow cytometry,3D7,72 h,,16.1 ± 5.87 nM
CC(C)CCOC1C(C)C2C(C=CC3C(C)C=CC=CC(C)OC(=O)C(C)C(=O)C(Cl)(Cl)C(=O)C32)CC1(C)O (stereo not drawn),parasite growth,ELISA,3D7,,blood stage,> 11000 nM
CN(C(=O)c1ccn2ncc(-c3ccc(C(F)(F)F)cc3)c2c1)c1ccc(C#N)cn1,parasite growth,,3D7,,,74 ± 32 nM
COc1cccc2c(-c3ccc4c(c3O)[C@@H](C)N[C@H](C)C4)c(CO)cc(OC)c12,parasite growth,SYBR Green,NF54,96 h,blood stage,15 nM
CC(C)(C)OC(=O)CNC(=O)[C@H](CCC(=O)N(O)c1ccc(Br)cc1)NC(=O)NC[C@H](N)C(=O)OC(C)(C)C,blood-stage growth,Giemsa-stained smears,3D7,48 h,asynchronous culture,30000 nM
CCN(CC)C/C=C/CNc1ccnc2cc(Cl)ccc12,parasite growth,,Dd2,,,1470 ± 120 nM
CN(C(=O)c1ccn2ncc(-c3ccc(C(N)=O)cc3)c2c1)c1ccc(C#N)cn1,parasite growth,,3D7,,,3 ± 1 nM
COc1ccc2nc3cc(Cl)ccc3c(NCCN3C(=O)c4ccc5c6c(ccc(c46)C3=O)C(=O)N(CCCn3ccnc3)C5=O)c2c1,parasite growth,SYBR Green,3D7,72 h,blood stage,8.44 nM
O=[N+]([O-])c1cccc(C(=S)Nc2ccccc2)c1,parasite growth,SYBR Green,3D7,96 h,blood stage,109000 nM
COc1cc(O)c(-c2cc(-c3c(C)cc(O)c4c(OC)ccc(-c5c(O)cc(OC)c6c5C[C@@H](C)N(C)[C@@H]6C)c34)c(O)c3c(OC)cc(C)cc23)c2c1[C@@H](C)N(C)[C@H](C)C2,parasite growth,,NF54,,blood stage,39 nM
O=C(C1CCN(c2nnnn2-c2ccccc2Cl)CC1)N1CCCc2ccccc21,parasite growth,SYBR Green,3D7,72 h,blood stage,1100 nM
"COc1cc(C)c(-c2ccc(O)c3c2C[C@@H](C)N[C@@H]3C)c2cccc(O)c12 (single isomer, unassigned)",parasite growth,SYBR Green,NF54,96 h,blood stage,234 nM
CCCCN1C(=O)c2ccc3c4c(ccc(c24)C1=O)C(=O)N(CCNc1c2ccc(Cl)cc2nc2ccc(OC)cc12)C3=O,parasite growth,SYBR Green,3D7,72 h,blood stage,< 5 nM and 3.65 nM
O=C1CC2(CCN(c3cc(N4CCN(S(=O)(=O)c5ccc(Cl)s5)CC4)ncn3)CC2)Oc2ccccc21,parasite growth,,,,,6680 ± 90 nM
CC1=N[C@H](C)Cc2c(-c3ccccc3)ccc(O)c21,parasite growth,SYBR Green,NF54,96 h,blood stage,5090 nM
N[C@@H](CCC(=O)N[C@@H](CCC(=O)N(O)c1ccc(Br)cc1)C(=O)NCC(=O)O)C(=O)O,blood-stage growth,Giemsa-stained smears,3D7,48 h,synchronous culture,70000 nM
CC1C=CC=CC(C)C2C=CC3CC(C)(O)C(F)C(C)C3C2C(=O)C(Cl)(Cl)C(=O)C(C)C(=O)O1 (stereo not drawn),parasite growth,ELISA,3D7,,blood stage,135 nM
Clc1ccc2c(c1)nc(N1CCNCC1)n2-c1ccccc1,parasite growth,,NF54,,blood stage,2080 nM
CC1=C(C(=O)c2ccc([N+](=O)[O-])cc2)C(=O)c2ccccc2C1=O,parasite growth,SYBR Green,Dd2,72 h,synchronized ring stage,513 ± 287 nM
CC1=C[C@@H](C)[C@H]2[C@@H]3C(=O)C(Cl)(Cl)C(=O)[C@H](C)C(=O)O[C@@H](C)/C=C/C=C\[C@@H](C)[C@@H]3C=C[C@@H]2C1,parasite growth,ELISA,3D7,,blood stage,14 nM
CC[C@H](C)[C@@H]1NC(=O)[C@H](CCCCN)NC(=O)[C@H](CCCCN)NC(=O)[C@H](Cc2ccc(O)cc2)NC(=O)[C@H](CC(C)C)NC(=O)[C@@H]2CCCN2C(=O)CNC(=O)CNC(=O)[C@@H](NC(=O)CN)CSSC[C@@H](C(=O)N[C@@H](CCC(=O)O)C(=O)N[C@@H](CO)C(N)=O)NC(=O)[C@H](CC(C)C)NC(=O)[C@H](CCCCN)NC(=O)[C@H](CCCCN)NC(=O)[C@H]([C@@H](C)CC)NC(=O)[C@H]([C@@H](C)CC)NC(=O)[C@H](CCCCN)NC(=O)[C@H](CCCCN)NC(=O)[C@H](Cc2ccc(O)cc2)NC(=O)[C@H](CC(C)C)NC(=O)[C@@H]2CCCN2C(=O)[C@H](C)NC(=O)CNC(=O)CNC(=O)[C@H](CO)NC(=O)CNC(=O)CNC(=O)[C@H](CO)NC(=O)[C@H](CCC(=O)O)NC(=O)[C@H](CC(C)C)NC(=O)[C@H](CC(C)C)NC(=O)[C@H](CCCCN)NC(=O)[C@H](CCCCN)NC(=O)[C@H]([C@@H](C)CC)NC1=O,parasite growth,,3D7,72 h,5% serum plus Albumax II,11900 ± 900 nM
CCC1=CC(=CNC23CC4CC(CC(C4)C2)C3)N=C1c1ccc[nH]1,parasite growth,SYBR Green I fluorescence,"D6, chloroquine-sensitive",,,117 nM
O=C(C1CCN(c2nnnn2-c2ccccc2)CC1)N1CCOc2ccccc21,parasite growth,SYBR Green,3D7,72 h,blood stage,6800 nM
Cc1cc(N2CC[C@@](C#N)(C3(C)CC3)C2=O)cc(C(=O)NCc2cc(F)cc(-c3cnn(C)c3)c2)n1,parasite growth,,NF54,,liver stage,13 nM
CCNCC#CCNc1ccnc2cc(Cl)ccc12,parasite growth,LDH,,,,86 nM
CCCCCCCCCC1CC2CCC3CC(CCCCCCCCC)NC(=N1)N23 (stereo not drawn),parasite growth,plasmodial LDH,D6 chloroquine-sensitive,,,1480 nM
Cc1nc(CN(C)c2ncnc3c2cnn3CCO)cs1,parasite growth,,NF54,72 h,blood stage,3860 nM
CCC1=C(C)C(=CNC2CCCCCCC2)N=C1c1ccc[nH]1,parasite growth,SYBR Green I fluorescence,"D6, chloroquine-sensitive",,,56 nM
N[C@@H](CNC(=O)N[C@@H](CCC(=O)N(O)c1ccc(Br)cc1)C(=O)NCC(=O)O)C(=O)O,blood-stage growth,Giemsa-stained smears,3D7,48 h,asynchronous culture,90000 nM
CCC1=CC(=CNC2CCCCCC2)N=C1c1ccc[nH]1,parasite growth,SYBR Green I fluorescence,"D6, chloroquine-sensitive",,,1300 nM
O=C(C1CCN(c2nnnn2-c2ccc(Cl)cc2)CC1)N1CCCc2ccccc21,parasite growth,SYBR Green,3D7,72 h,blood stage,2000 nM
CCC1=CC(=CNC2CCCCCCC2)N=C1c1ccc[nH]1,parasite growth,SYBR Green I fluorescence,"D6, chloroquine-sensitive",,,1280 nM
CC(=O)O[C@H]1C[C@@H]2[C@@]3(C)C=CC(=O)C(C)(C)[C@H]3C[C@@H](O)[C@@]2(C)C2=CC[C@@H](c3ccoc3)[C@@]21C,,[3H]hypoxanthine incorporation,"D6, chloroquine-sensitive",,,31000 ± 200 nM
CCCCCCN=Cc1[nH]c(-c2ccc[nH]2)cc1OC,parasite growth,SYBR Green I fluorescence,"D6, chloroquine-sensitive",,,34 nM
COc1ccc2nc3cc(Cl)ccc3c(N3C(=O)c4ccc5c6c(ccc(c46)C3=O)C(=O)N(CCN(C)C)C5=O)c2c1,parasite growth,SYBR Green,3D7,72 h,blood stage,419 nM
